Published values gathered from unrelated publications.
Numbered parts are unrelated; each lists some results of a single study. Changes are numbered by the printed parent chain.

Block 1
Target: Ras GTPase-activating protein-binding protein 1, full length (G3BP1, Homo sapiens, UniProt Q13283)
Sequence of UniProt Q13283 (whole entry, looked up): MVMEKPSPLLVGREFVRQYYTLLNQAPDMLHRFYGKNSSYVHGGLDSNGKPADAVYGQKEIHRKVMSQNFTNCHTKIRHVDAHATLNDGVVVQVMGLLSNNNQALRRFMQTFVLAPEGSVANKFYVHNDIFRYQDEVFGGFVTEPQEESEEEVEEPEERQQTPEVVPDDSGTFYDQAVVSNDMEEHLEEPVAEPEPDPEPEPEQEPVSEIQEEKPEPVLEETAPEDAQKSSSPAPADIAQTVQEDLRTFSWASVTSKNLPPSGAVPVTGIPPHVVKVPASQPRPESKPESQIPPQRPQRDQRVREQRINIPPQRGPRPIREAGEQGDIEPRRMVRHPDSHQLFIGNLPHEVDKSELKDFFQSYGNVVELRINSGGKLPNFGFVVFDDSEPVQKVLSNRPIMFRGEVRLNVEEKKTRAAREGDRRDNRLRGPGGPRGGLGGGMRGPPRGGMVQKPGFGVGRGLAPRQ
Method: RNA Bind-n-Seq
Molecule type: RNA
Sample: in vitro
Tested at: 200 nM
Notes: whole 134-nt RNA, ends assumed
Together with: 150 mM KCl
Relative to: input library
Direction: higher = stronger binding
For `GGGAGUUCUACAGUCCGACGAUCAAGUCCUGUGCUACACAUCGUAUGUACCGAAUCGGGGUUUGGGGUUUGGGGAGGGGAAAGUAUUAUGUUACGCCGUUCGGAUCUGCACUUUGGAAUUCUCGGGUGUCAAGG`, the log2 enrichment was 0.949.
The log2 enrichment of `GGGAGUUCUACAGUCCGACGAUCUGGUUAGUCAACUACUUUGGUUCCUUAUCAGUAGAAGACUCCCUAGAAUGUCUCAGAGCCAUGCUGUCUGCCAACAUCCGUCAGAAUCUGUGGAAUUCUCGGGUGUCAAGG` is reported as -0.135.
`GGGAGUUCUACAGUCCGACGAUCACCAUGCAGGUGGGCAUCUUUGGGAAGUGGGGCAAGGGGGGGAUAGGGUGGGGGGUAACACUUUGGGAACAGGUGGUCCCAGGUCGUUUCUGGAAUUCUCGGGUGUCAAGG` gave a log2 enrichment of 1.15.
For `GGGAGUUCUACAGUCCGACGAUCAGUCCUGUGCUACACAUCGUAUGUACCGAAUCGGGCCCCGGGGCCCCGGGCCCCGGGGAAAGUAUUAUGUUACGCCGUUCGGAUCUGCACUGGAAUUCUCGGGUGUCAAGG`, the log2 enrichment was 0.698.
`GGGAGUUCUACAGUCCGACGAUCUACUCUUUGAUUUAUCAAAUGUGUUCAGUUGGAGAAUCGUCCUCAGGAAAGGCUUCAAGGAGCCUUGCACAGCAUAUUCCUGGCCCUGGUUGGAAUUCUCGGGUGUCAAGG` has a log2 enrichment of -1.12.
For `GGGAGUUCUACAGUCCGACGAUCCAAGUCCUGUGCUACACAUCGUAUGUACCGAAUCGGCCCCGGCCCCGGCCCCGGGGAAAGUAUUAUGUUACGCCGUUCGGAUCUGCACUUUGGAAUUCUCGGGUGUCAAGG`, the log2 enrichment was -1.04.
`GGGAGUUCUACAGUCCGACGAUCAAGUCCUGUGCUACACAUCGUAUGUACCGAAUCGGUUUUUGGUUUUUGGGUUUUUGGAAAGUAUUAUGUUACGCCGUUCGGAUCUGCACUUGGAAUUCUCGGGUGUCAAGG` has a log2 enrichment of -1.35.
The log2 enrichment of `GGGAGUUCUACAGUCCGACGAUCUAACUUUAGAGGAGGAUCUGAUGGAUAUGGCAGUGGACGUGGAUUUGGGGAUGGCUAUAAUGGGAAUGGAGGAGGACCUGGAGGUGGCAAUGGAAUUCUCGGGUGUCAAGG` is reported as 0.362.
`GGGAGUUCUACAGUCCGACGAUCAAGUCCUGUGCUACACAUCGUAUGUACCGAAUCGGGAAAGGGAGGGAAAAAAAGGGAAAGUAUUAUGUUACGCCGUUCGGAUCUGCACUUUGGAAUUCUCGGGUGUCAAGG` gave a log2 enrichment of 0.0015.

Block 2
Target: Centromere-binding protein 1, full length, His-tagged (CBF1, Saccharomyces cerevisiae, UniProt P17106, residues 1-351)
Sequence of UniProt P17106 (whole entry, looked up): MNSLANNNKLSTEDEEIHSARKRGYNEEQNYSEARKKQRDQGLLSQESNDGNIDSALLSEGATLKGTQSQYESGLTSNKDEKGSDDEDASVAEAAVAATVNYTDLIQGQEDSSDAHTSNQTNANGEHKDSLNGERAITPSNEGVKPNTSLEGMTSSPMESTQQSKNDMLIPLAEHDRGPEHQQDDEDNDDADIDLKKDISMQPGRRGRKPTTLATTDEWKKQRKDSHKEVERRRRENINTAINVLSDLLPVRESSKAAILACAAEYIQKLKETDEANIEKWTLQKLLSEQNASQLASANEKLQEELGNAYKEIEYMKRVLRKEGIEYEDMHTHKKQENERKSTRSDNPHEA
Method: competition protein-binding microarray
Molecule type: double-stranded DNA, one strand shown
Sample: in vitro
Tested at: 2 µM
Notes: whole 60-bp probe, lowest competitor level
Together with: Pho4 competitor, 0.05 µM
Direction: higher = stronger binding
For `AGTGGGCTTTCTTGTCATGCCACTCAAGTTACAAGCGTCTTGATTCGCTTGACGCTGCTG`, the fluorescence intensity was 99.5 a.u.
The fluorescence intensity of `CAAGAAATAAAAGAAAACGTGACTCGAGGCCTCCATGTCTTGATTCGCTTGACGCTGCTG` is reported as 1270 a.u.
For `GATCAGCATATCCGTCACGTTCTGCTCATCGGGACTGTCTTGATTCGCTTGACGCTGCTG`, the fluorescence intensity was 465 a.u.
For `AACTCCAAATATCTTCACGTGGCTGCCTGTTCTAAAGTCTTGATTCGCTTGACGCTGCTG`, the fluorescence intensity was 1120 a.u.
`GTAGGAGCCCCTTAGGGCGTGCCAGTAGTTTAAAGCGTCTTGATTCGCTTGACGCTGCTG` has a fluorescence intensity of 70.8 a.u.
For `CGCCTAAGGAAAGAGCCCGTGAAATCATCAACAAGTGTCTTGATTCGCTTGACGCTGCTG`, the fluorescence intensity was 80.7 a.u.
The fluorescence intensity of `AGAGAGAACTTTGGACACGTTTATAAAAATTGACGGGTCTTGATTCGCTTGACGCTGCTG` is reported as 135 a.u.
The fluorescence intensity of `ATATATAAAGTGCGTAATGTGCGTACTAAAAAAGCTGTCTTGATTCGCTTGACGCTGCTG` is reported as 110 a.u.
With `CCGGTGTTACCCAAGCTCGTGTTTTCACTGGTAACAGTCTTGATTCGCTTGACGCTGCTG` the fluorescence intensity was 71.6 a.u.
For `CGGGGTTAAGTTTGCTCGGTGGGTGGCTTGCAGCAGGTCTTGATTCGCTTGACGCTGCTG`, the fluorescence intensity was 69.3 a.u.
The fluorescence intensity of `GGTGAAGCCGGTATCGTCGTGCCGACCGCAGACTACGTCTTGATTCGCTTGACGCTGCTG` is reported as 65.9 a.u.
With `AATAAGTCGATCCAACACGTGGTGAGATACTAGCAGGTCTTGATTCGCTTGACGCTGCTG` the fluorescence intensity was 1220 a.u.
`CGCGAACGAATCCATCACGCAGCCTCGCCTTGAGACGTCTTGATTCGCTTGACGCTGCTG` has a fluorescence intensity of 74.9 a.u.
The fluorescence intensity of `CATACCCAACCTTGATGAGTGGGTGAAGATATTTGTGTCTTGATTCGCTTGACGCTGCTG` is reported as 76.7 a.u.
For `TTGCTTGCAAACCGTCACATGCTTATAATCAACTTTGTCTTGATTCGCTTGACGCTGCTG`, the fluorescence intensity was 825 a.u.
`AAATTACTAAGTTGGAGTGTGGGTGACGCCGTATGAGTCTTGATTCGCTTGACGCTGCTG` gave a fluorescence intensity of 60.7 a.u.

Block 3
Target: RNA binding protein fox-1 homolog 2, RRM domain, GST-SBP tag (RBFOX2, Homo sapiens, UniProt O43251-10, residues 100-194)
Method: RNA Bind-n-Seq
Molecule type: RNA
Sample: in vitro
Tested at: 365 nM
Notes: natural RNA segment, single round, ends assumed
Relative to: no-protein control
Direction: higher = stronger binding
Target sequence (chain): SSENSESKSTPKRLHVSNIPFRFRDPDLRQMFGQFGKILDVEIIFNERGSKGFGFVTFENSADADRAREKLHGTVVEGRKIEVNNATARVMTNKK
`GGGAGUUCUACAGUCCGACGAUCUCUUGUUGCAGAGAUUUCCUCCAUGGUGGAAGGGGGUGUGCGUGCGUGUGCGUGCGUGUUAGUGUGUGUGCAUGUGUGUGUCUGUCUUUGUGGGAGGGUAAGACAAUAUGUGGAAUUCUCGGGUGCCAA`: “RBNS enrichment (R)” 1.05.
`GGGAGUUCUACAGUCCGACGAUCUCUGGGUCCCUGAGCAGGAGGAGGAGCUGUGAACAAGUCAGACCAAUAAAACCAGGUUUGCACUGCCCUGGCUGCUGUUCUGUGGGCACUGAGCACUUGGGAUGGACGGGUGGAAUUCUCGGGUGCCAA`: “RBNS enrichment (R)” 0.601.
`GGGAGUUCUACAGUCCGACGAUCUAUCCCUUCAGCUCUCUGAUCUGCUCUUUCUUCAUGAUACUUAGUCUGCAGGGCAUAUUAAGAUCAUCCCAGAGGUUCAGGCAGUUCCUGUCAUCUCUGAAAAGACUGGGUGGAAUUCUCGGGUGCCAA` — result for “RBNS enrichment (R)”: 0.307.
For `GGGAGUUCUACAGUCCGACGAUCAACCGUCCUAAUUUUUCAUAGACUCUGGCAUCUUACUAACCCAUGUGAGGUUUUCAUUGUUCAUCUUUAUGGUGUUUUGGAUUGGUGUACUGAGAGGGACUUGGUUCAAAUGGAAUUCUCGGGUGCCAA`, “RBNS enrichment (R)” read 0.448.
Under “RBNS enrichment (R)”, `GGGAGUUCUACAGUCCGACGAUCGAUGCACAGUCAGUUGAACUUAGUAGCAACGCUGGCUUUGUGUAAUAAAGGAAGCAUUUGUAACUUACCCUUUCUUUGUGUGGUUAUUUGUGUAUGAGUUGGACGUAAAGUGGAAUUCUCGGGUGCCAA` is recorded as 0.326.
`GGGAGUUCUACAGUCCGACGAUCACUGGGUACGCUGGACUUGGAGAGGUGACGAGAGUUUCAUGGAGAGAAAAGAGGAAACUUGGGGGGGGCGGAGUUUCCCCCACCCAAUUACCUAGCAGGAGUCGUGGAAAUGGAAUUCUCGGGUGCCAA` — result for “RBNS enrichment (R)”: 1.07.
Under “RBNS enrichment (R)”, `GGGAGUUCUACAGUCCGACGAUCUGUUAACCAAAAGAGCUUCCCCUCCCCCAGUUUUCUUUUAUGACCACUGAUGACUGCGGCUGUCUCGACAGUCAUCUUCACAUCUGCUCCCCUCCACAGUCACUAGAGGGUGGAAUUCUCGGGUGCCAA` is recorded as 0.595.
`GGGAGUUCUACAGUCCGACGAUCGAGCCCCAUUUCCAAGACCCCUCACAUCCAAUCCUGUCCUGUAACAUCCAUCAAGGAUUUCCAUAGGGGUGACUGGUGCCCACCCAAGACUGCACCAGUGCCUGCUCAUUUGGAAUUCUCGGGUGCCAA`: “RBNS enrichment (R)” 0.907.

Block 4
Target: CCNB1, cyclin fold, Cln2 fusion (human)
Method: yeast growth competition, sequencing
Sample: yeast
Notes: weak parent motif
Relative to: not given
Direction: higher = stronger binding
Starting sequence: CDC6 docking peptide (human); TLKGRRLVFDNQL
For `TLKGRRLVFFNQL [D10F]`, “normalised enrichment score” read 0.284.
`TAKGRRLVFDNQL [L2A]` — result for “normalised enrichment score”: -0.105.
For `TLKGRRLMFDNQL [V8M]`, “normalised enrichment score” read 0.177.
For `TLKGRRLVFDNQD [L13D]`, “normalised enrichment score” read -0.392.
`TLKGRPLVFDNQL [R6P]`: “normalised enrichment score” -0.673.
`TLKGRRLVFDNQM [L13M]`: “normalised enrichment score” 0.754.
Under “normalised enrichment score”, `TLKGRRNVFDNQL [L7N]` is recorded as 0.402.
Under “normalised enrichment score”, `TLKGRRLVFDNQV [L13V]` is recorded as 0.132.
Under “normalised enrichment score”, `TLKGNRLVFDNQL [R5N]` is recorded as -0.141.
`TLKGRRLAFDNQL [V8A]` — result for “normalised enrichment score”: -0.102.
`TLKGRRLVFDNML [Q12M]`: “normalised enrichment score” 0.374.
Under “normalised enrichment score”, `TKKGRRLVFDNQL [L2K]` is recorded as 0.621.
For `TLKHRRLVFDNQL [G4H]`, “normalised enrichment score” read 0.134.
`TLCGRRLVFDNQL [K3C]` — result for “normalised enrichment score”: 0.761.
`TLKGRRLVCDNQL [F9C]` — result for “normalised enrichment score”: 0.221.
`TLKGRRLTFDNQL [V8T]`: “normalised enrichment score” 0.942.
Under “normalised enrichment score”, `TLKGRRLVFDNQE [L13E]` is recorded as 0.389.
`TLKGRRRVFDNQL [L7R]` — result for “normalised enrichment score”: 1.26.
Under “normalised enrichment score”, `TLKGRRLVFDNQK [L13K]` is recorded as -0.259.
For `TLWGRRLVFDNQL [K3W]`, “normalised enrichment score” read -0.00582.
`TLKGRRLVFDNNL [Q12N]` — result for “normalised enrichment score”: 0.139.
`TLKGRRLVFDQQL [N11Q]`: “normalised enrichment score” -0.198.
`TLKGRRFVFDNQL [L7F]`: “normalised enrichment score” -0.0294.
Under “normalised enrichment score”, `TLKGRRLVDDNQL [F9D]` is recorded as 0.436.
